Results collected from several papers.
Lines come from different studies, so protocols differ.
CDK6 with cyclin D1: Cyclin-dependent kinase 6, with cyclin D1 (CDK6, Homo sapiens, UniProt Q00534)
CDK6: Cyclin-dependent kinase 6 (CDK6, Homo sapiens, UniProt Q00534)
CDK6 with cyclin D3: Cyclin-dependent kinase 6, with cyclin D3 (CDK6, Homo sapiens, UniProt Q00534)

`NC(=O)C[C@H]1CCc2sc3ncnc(O[C@H]4CC[C@H](N5CCOCC5)CC4)c3c21` has an inhibition of 3% (CDK6 with cyclin D1; enzyme activity, inhibitor; 10 µM).
`CS(=O)(=O)Nc1cccc(-c2csc3cnc(Nc4ccc(N5CCN(CCCCCOc6cccc7c6C(=O)N(C6CCC(=O)NC6=O)C7=O)CC5)cc4)nc23)c1` (centres unmarked) has an inhibition of 91.2% (CDK6; probe labelling, inhibitor, KiNativ chemoproteomics; MOLT-4; 1 µM).
`O=C(Cc1ccc(OCc2ccccc2)cc1)NC1(C(=O)O)CCN(C(=O)c2ccc(-c3cccc(Cl)c3)cc2)CC1` — result for “activity vs control”: 116% (CDK6 with cyclin D3; enzyme activity, inhibitor; 10 µM).
`CN1CC[C@@H](COc2cnc(C#N)cc2-c2ccn3nc(NC(=O)C4CC4)cc3c2)C1` has an inhibition of 8% (CDK6 with cyclin D3; enzyme activity, inhibitor; 1 µM).
The inhibition of `Cc1nc2c(F)cc(-c3nc(Nc4ccc(CNC(=O)CCCCCCC(=O)NO)cc4)ncc3F)cc2n1C(C)C` is reported as 97% (CDK6 with cyclin D3; enzyme activity, inhibitor; 1 µM).
`Cc1cccc(O[C@H]2CCC[C@@H](C(C)CNCc3ccncc3)C2)c1` (relative stereo) gave an inhibition of 5% (CDK6 with cyclin D3; enzyme activity, inhibitor; 10 µM).
`Cc1cc(C)nc(Nc2ccc([C@@H]3CCCN(C(=O)/C=C/c4c(C)nn(C)c4C)C3)nc2)n1` — result for “activity vs control”: 18% (CDK6; enzyme activity, inhibitor, ADP detection; 1 µM).
The remaining activity of `CN1C[C@@H](c2c[nH]c3cc(Br)ccc23)NC[C@@H]1c1c[nH]c2cc(Br)ccc12` is reported as 98% (CDK6 with cyclin D1; enzyme activity, inhibitor; 10 µM).
`Cc1nn(C)c(C)c1/C=C/C(=O)N1CCC[C@H](Cc2ccc(Nc3ccccn3)nn2)C1`: “activity vs control” 12% (CDK6; enzyme activity, inhibitor, ADP detection; 1 µM).
`C=CC(=O)N1Cc2nc(-c3cc(-c4cc(Cl)cnc4Cl)c(F)cc3F)n(-c3ccncn3)c2C1` gave an inhibition of 9.9% (CDK6 with cyclin D1; cell-free assay, inhibitor; 1 µM).
`CCn1cc(C(=O)O)c(=O)c2c(N)c(F)c(NC3CCCCC3)cc21` has an inhibition of -2% (CDK6 with cyclin D3; kinase activity; 0.1 µM, with: ATP at Km).
The inhibition of `NC(=O)[C@@H](O)C[C@H]1CCc2sc3ncnc(O[C@H]4CC[C@H](N5CCOCC5)CC4)c3c21` is reported as 5% (CDK6 with cyclin D3; enzyme activity, inhibitor; 10 µM).
`COc1ccc(NC(=O)Nc2ccc3c(c2)C(=O)N(C(C)CO)CC(C)C(CN(C)Cc2ccc4c(c2)OCO4)O3)cc1` (centres unmarked) has a remaining activity of 94% (CDK6 with cyclin D3; kinase activity, KinaseProfiler; 0.03 µM, species human; relative to: control).
For `O=c1c(-c2ccc(Cl)c(CN3CCOCC3)c2)coc2cc(O)ccc12`, the remaining activity was 100% (CDK6 with cyclin D3; enzyme activity, inhibitor; 1 µM).
The remaining activity of `Nc1ncc(-c2cc(-c3cnn(CC(F)(F)F)c3)ncc2F)nc1C(=O)NC1CNCC(F)C1` (centres unmarked) is reported as 110% (CDK6 with cyclin D1; enzyme activity; 1 µM; relative to: DMSO control).
For `O=C(O)CCC(=O)c1cccc(NS(=O)(=O)c2c[nH]c3ncccc23)c1`, the remaining activity was 93% (CDK6 with cyclin D3; kinase activity, radiometric; 10 µM).
For `C=CC(=O)Nc1cccc(-c2cnc3[nH]cc(C(=O)NC(C)(C)C)c3n2)c1`, the inhibition was 14% (CDK6 with cyclin D3; enzyme activity, inhibitor; 0.1 µM).
